{"data": "Results from different studies", "note": "Each numbered part is a random draw from the data of one study; scales do not carry over between parts. Several values in a cell are separate wells, animals, samples, runs or records.", "sequence of UniProt P29376 (whole entry, looked up)": "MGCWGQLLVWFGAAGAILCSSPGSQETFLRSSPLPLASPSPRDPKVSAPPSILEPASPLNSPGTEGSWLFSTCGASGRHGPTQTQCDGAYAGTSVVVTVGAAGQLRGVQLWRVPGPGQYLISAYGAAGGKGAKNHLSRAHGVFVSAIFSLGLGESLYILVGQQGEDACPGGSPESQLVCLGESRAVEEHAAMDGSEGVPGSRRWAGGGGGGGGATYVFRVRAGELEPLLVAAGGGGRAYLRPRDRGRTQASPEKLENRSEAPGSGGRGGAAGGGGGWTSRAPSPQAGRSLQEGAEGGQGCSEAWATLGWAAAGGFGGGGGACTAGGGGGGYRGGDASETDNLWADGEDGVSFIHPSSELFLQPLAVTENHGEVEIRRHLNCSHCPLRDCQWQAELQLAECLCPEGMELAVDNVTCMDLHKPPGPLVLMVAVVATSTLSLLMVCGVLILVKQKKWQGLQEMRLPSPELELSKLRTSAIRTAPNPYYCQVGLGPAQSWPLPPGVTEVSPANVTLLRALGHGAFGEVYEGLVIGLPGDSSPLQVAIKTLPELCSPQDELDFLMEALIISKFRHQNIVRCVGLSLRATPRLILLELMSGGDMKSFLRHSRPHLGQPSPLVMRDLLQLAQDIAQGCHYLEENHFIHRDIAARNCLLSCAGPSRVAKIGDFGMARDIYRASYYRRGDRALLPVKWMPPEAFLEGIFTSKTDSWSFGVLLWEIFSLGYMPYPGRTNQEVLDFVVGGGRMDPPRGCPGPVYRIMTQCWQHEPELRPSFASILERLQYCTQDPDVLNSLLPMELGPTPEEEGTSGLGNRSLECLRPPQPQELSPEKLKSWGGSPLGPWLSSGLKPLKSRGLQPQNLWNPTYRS", "sequence of UniProt Q8IU85 (whole entry, looked up)": "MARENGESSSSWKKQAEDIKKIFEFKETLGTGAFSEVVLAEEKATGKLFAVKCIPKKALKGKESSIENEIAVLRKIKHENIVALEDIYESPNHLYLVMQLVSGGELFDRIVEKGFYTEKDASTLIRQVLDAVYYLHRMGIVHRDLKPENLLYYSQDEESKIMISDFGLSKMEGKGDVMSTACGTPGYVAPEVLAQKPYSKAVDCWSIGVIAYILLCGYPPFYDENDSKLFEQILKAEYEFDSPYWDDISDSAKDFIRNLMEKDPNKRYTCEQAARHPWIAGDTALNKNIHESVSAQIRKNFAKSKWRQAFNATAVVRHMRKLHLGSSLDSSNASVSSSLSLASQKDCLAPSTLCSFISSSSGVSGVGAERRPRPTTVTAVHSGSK", "sequence of UniProt Q07912 (whole entry, looked up)": "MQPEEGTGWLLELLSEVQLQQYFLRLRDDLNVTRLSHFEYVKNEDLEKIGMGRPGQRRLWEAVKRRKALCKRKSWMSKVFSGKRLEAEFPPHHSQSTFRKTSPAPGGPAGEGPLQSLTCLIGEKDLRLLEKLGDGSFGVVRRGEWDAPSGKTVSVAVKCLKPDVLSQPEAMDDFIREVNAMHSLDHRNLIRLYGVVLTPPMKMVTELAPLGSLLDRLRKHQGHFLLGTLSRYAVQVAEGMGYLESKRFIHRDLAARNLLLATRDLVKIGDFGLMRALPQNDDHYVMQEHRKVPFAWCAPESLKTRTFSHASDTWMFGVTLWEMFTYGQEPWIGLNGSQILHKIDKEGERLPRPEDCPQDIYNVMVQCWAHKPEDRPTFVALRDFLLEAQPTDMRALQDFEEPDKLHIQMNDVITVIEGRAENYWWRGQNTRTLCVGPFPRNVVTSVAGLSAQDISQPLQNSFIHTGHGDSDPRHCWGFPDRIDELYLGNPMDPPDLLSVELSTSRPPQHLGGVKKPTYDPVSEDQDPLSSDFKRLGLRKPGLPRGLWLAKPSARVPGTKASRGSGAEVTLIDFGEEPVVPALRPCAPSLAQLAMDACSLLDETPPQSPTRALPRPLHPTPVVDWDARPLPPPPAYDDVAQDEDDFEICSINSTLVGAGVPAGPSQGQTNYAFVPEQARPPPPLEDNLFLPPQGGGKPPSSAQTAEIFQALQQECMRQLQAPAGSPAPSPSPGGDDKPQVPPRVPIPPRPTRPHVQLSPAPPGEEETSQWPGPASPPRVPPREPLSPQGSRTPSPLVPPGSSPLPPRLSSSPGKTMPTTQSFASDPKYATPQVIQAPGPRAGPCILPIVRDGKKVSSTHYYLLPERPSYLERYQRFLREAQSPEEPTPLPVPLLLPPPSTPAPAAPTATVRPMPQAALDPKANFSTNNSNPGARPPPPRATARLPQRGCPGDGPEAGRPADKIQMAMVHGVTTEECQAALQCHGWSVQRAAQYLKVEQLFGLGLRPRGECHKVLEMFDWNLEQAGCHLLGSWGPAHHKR", "sequence of UniProt P07949 (whole entry, looked up)": "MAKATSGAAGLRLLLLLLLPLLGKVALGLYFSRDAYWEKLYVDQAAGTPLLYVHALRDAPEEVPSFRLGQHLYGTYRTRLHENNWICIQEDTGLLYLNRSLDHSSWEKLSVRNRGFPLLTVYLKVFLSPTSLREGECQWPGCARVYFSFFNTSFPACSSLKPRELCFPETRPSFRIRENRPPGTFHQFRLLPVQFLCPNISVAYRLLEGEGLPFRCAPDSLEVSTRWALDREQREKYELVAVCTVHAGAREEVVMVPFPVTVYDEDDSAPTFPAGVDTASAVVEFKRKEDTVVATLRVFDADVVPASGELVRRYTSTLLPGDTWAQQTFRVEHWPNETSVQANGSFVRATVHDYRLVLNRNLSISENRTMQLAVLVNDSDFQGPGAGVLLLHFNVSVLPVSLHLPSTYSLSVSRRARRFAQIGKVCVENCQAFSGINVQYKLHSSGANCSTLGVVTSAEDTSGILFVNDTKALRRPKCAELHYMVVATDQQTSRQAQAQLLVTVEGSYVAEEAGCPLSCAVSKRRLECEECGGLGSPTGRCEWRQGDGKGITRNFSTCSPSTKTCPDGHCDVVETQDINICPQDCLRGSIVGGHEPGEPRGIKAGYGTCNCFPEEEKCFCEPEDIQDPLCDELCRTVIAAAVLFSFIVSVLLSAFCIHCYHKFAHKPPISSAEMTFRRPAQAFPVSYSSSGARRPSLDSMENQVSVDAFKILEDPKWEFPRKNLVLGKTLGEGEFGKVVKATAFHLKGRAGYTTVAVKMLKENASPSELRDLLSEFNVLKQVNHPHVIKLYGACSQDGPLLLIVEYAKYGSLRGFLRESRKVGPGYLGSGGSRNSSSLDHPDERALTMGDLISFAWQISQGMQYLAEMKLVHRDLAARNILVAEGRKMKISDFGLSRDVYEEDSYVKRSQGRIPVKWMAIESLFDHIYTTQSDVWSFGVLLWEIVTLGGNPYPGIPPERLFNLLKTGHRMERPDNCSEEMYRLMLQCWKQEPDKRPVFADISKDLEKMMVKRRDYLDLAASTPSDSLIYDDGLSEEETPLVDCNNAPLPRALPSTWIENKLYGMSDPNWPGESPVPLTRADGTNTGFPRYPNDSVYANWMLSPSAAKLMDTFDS"}
{"data": "Series 1", "Compound": "COC[C@H]1OC(=O)c2coc3c2[C@@]1(C)C1=C(C3=O)[C@@H]2CCC(=O)[C@@]2(C)C[C@H]1OC(C)=O", "concentration": "0.5 µM"}
{"target": "TNK2 (Homo sapiens, UniProt Q07912)", "read-out": "kinase activity", "together with": "ATP 10 µM", "relative to": "untreated", "remaining activity [%]": 102}
{"target": "RET (Homo sapiens, UniProt P07949)", "read-out": "enzyme activity", "action": "inhibitor", "relative to": "control", "remaining activity [%]": 96.9}
{"target": "CAMK1D (Homo sapiens, UniProt Q8IU85)", "read-out": "enzyme activity", "action": "inhibitor", "relative to": "control", "remaining activity [%]": 95.9}
{"data": "Single results of other studies"}
{"Structure (SMILES)": "CCOc1ccc(Nc2c3c(nc4ccccc24)CCC3)cc1", "tested on": "HepG2", "test": "resazurin", "conditions": "1.66 µM, 48 h", "measurement": "cytotoxicity", "value": "3% and 4%"}
{"Structure (SMILES)": "COc1cc2c(cc1OC)C13CCN4CC5=CCOC6CC(=O)N2C1C6C5CC43 (centres unmarked)", "tested on": "HaCaT", "conditions": "100 µM, 18 h", "measurement": "viability", "value": "94.6%"}
{"Structure (SMILES)": "CC#CC(=O)N1CCC[C@H]1c1nc(-c2ccc(C(=O)Nc3ccccn3)cc2)c2c(N)nccn12", "tested on": "LTK (Homo sapiens, UniProt P29376)", "test": "enzyme activity, inhibitor", "conditions": "1 µM", "measurement": "inhibition", "value": "4%"}
{"Structure (SMILES)": "Clc1ncccc1C1Cc2ccccc2C2=NCCN21 (centres unmarked)", "system": "human, microsomes or S9", "conditions": "2 µM, 0.5 h", "measurement": "remaining compound", "value": "> 99%"}
{"Structure (SMILES)": "C[C@]12CC[C@H](O)CC1=CC[C@@H]1[C@@H]2CC[C@]2(C)C(=O)CC[C@@H]12", "tested on": "HaCaT", "conditions": "100 µM, 18 h", "measurement": "viability", "value": "65.6%"}
{"note": "For quick reference, copied from above (single results of other studies):"}
{"Structure (SMILES)": "C[C@]12CC[C@H](O)CC1=CC[C@@H]1[C@@H]2CC[C@]2(C)C(=O)CC[C@@H]12", "tested on": "HaCaT", "conditions": "100 µM, 18 h", "measurement": "viability", "value": "65.6%"}
